# Measurements of several laboratories.
# ± gives the spread as reported.
# Chain of UniProt Q8NEB9 (whole entry, looked up): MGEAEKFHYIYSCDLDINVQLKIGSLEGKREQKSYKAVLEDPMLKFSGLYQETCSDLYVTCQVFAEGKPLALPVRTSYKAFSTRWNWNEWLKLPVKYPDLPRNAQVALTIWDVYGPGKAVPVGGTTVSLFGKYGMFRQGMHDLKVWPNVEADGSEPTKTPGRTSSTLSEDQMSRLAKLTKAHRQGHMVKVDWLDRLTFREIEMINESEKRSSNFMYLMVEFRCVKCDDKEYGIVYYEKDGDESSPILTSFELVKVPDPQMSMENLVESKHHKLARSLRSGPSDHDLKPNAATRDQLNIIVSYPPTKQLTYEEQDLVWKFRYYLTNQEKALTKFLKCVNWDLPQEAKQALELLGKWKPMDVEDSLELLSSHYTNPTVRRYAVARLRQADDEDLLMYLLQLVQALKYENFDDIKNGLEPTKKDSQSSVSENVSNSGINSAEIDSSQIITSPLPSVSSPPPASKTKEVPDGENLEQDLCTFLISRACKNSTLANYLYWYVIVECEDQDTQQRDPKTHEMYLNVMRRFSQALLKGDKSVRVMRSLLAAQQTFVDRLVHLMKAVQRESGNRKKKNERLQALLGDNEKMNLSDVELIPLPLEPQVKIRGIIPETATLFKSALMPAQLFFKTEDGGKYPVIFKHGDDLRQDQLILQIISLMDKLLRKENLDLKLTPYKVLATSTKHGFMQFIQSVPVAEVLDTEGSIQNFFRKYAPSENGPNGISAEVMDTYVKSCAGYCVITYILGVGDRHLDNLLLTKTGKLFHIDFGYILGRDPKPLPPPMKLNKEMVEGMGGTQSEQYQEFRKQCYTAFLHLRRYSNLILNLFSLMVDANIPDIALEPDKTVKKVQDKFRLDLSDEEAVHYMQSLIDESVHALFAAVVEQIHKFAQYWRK
Compound,target or system,assay,test system,conditions,how to read,endpoint,result
CCN(CC)c1ccc(-c2oc3cc4ccccc4cc3c(=O)c2O)cc1,,,DMSO,with: visible light 445-465 nm,,CO yield,1.01
C=C(NC(=O)c1csc(-c2nc3c(cc2O)-c2nc(cs2)C(=O)NC(C(C)O)C(=O)NC(=C(C)OC)c2nc(cs2)C(=O)NC2c4nc(cs4)C(=O)NC(COC(=O)c4c5c6c(cccc6n4O)COC(=O)C(OC4CC(C)(O)C(N(C)C)C(C)O4)C2OC5)c2nc-3cs2)n1)C(N)=O (stereo not drawn),,,"female Sprague-Dawley rat, plasma","intravenous, 18 mg/kg, single dose, infusion",,Cmax,10200 ng/mL
COc1cccc(OC)c1-c1cc(C(=O)NC2(C(=O)O)C3CC4CC(C3)CC2C4)nn1-c1ccc(C(=O)N(C)CCOCCN(C)C(=O)[C@H](CCCCNC(=O)[C@H](CC(C)C)NC(=O)C2OC2C(=O)O)NC(=O)CN2CCN(CC(=O)[O-])CCN(CC(=O)[O-])CCN(CC(=O)[O-])CC2)cc1C(C)C.[177Lu+3] (mixture of isomers),,,"mouse, HT-29 xenograft","168 h post injection, biodistribution",baseline: tumour over lung uptake,tumour-to-lung ratio,4.03
CN(C)c1ccc(C2CC(Nc3ccc(-c4ccc(NC5=NOC(c6ccc(N(C)C)cc6)C5)cc4)cc3)=NO2)cc1 (stereo not drawn),,shake flask UV/Vis,n-octanol/water,,,logP,6.43
CC(C)(O)c1ncc([S@](N)(=O)=NC(=O)Nc2c3c(cc4c2CCC4)CCC3)s1,,item: infections and infestations,healthy human,"oral, dose not given, all active doses pooled",,subjects with TEAEs,2%
O=C(Nc1cnccc1-c1ccc([18F])nc1)c1ccnc(NC(=O)C2CC2)c1,,,"FVB/NJ mice, both sexes, liver","intravenous, 5 min, median, P-gp inhibitor pretreatment, with: tariquidar 15 mg/kg iv",,SUV,5.58
OC1(C(F)(F)F)CCN(c2nc(Nc3ccnc(C(F)(F)F)c3)nc(-c3cccc(C(F)(F)F)n3)n2)C1 (stereo not drawn),,,"monkey, plasma","oral, 1 mg/kg",,half-life,12.7 ± 2.19 h
COC1CN([C@H]2CC[C@H]([C@@]3(C)Oc4c(Cl)cc(C(=O)NCc5c(SC)cc(C)[nH]c5=O)c(C)c4O3)CC2)C1,,"RNA-seq, item: SEPTIN8 mouse homolog","mouse, HT-1376 xenograft, whole blood",dose not given,baseline: vehicle,log2 fold change,0.451
O=C1NC2(CC2)COc2ncc(F)cc2[C@H]2COCCN2c2ccn3ncc1c3n2,Salmonella typhimurium,Ames test,TA1535,"50 µg/plate, 48 h, with: rat liver S9",,revertant colonies,10 ± 3 revertants/plate
CNS(=O)(=O)Nc1nccc(Cc2c(C)c3ccc(Oc4ncccc4F)cc3oc2=O)c1F,SW948,cell viability,,7 days,,IC50,13.4 nM
Cc1nn(-c2cccc(N)c2)c(=O)c2cnc(Nc3ccc(N4CCNCC4)cc3)nc12,"Phosphatidylinositol 3-kinase catalytic subunit type 3 (PIK3C3, Homo sapiens, UniProt Q8NEB9)","kinase activity, inhibitor, SelectScreen kinase profiling",,,,IC50,> 10000 nM
C=CC(=O)Nc1cc(Nc2nccc(-c3c[nH]c4ccccc34)n2)c(OC)cc1N(C)CCN(C)C,,storage stability,human plasma,"2 h, on ice, LLOQ level",,recovery,99.6%
CC(C)C[C@H](NC(=O)[C@H](CCCN)NC(=O)CNC(=O)[C@@H](NC(=O)[C@H](C)NC(=O)[C@@H]1CSCSC[C@H](NC(=O)CC[C@H](N)C(=O)O)C(=O)N[C@@H](CC(N)=O)C(=O)N[C@@H]([C@@H](C)O)C(=O)N[C@@H](C)C(=O)N[C@@H]([C@@H](C)O)C(=O)N1)[C@@H](C)O)C(=O)N[C@@H](C)C(=O)N[C@@H](CCC(=O)O)C(=O)N[C@@](C)(Cc1ccccc1)C(=O)N[C@@H](CC(C)C)C(=O)N[C@H](C(=O)N[C@@H](CCCNC(=N)N)C(=O)N[C@@H](CO)C(=O)N[C@@H](CO)C(=O)N[C@@H](CC(N)=O)C(=O)N(C)[C@@H](CC(N)=O)C(=O)N[C@@H](Cc1ccccc1)C(=O)NCC(=O)N1CCC[C@H]1C(=O)N[C@@H](CCCCNC(=O)CC[C@H](NC(=O)CC[C@H](NC(=O)CCCCCCCCCCCCCCCCCCC(=O)O)C(=O)O)C(=O)O)C(=O)N[C@@H](CC(C)C)C(=O)N1CCC[C@H]1C(=O)N1CCC[C@H]1C(=O)N[C@H](C(=O)N[C@@H](CCC(=O)O)C(=O)N[C@H](C(=O)NCC(=O)N[C@@H](CO)C(=O)N[C@@H](CC(N)=O)C(=O)N[C@H](C(=O)N[C@@H](Cc1ccc(O)cc1)C(N)=O)[C@@H](C)O)C(C)C)[C@@H](C)O)C(C)C,,,healthy human,"subcutaneous, 0.4 mg",,%AUC extrapolated,5.6%
C=CC(=O)Nc1cccc(Cn2ncc3cnc(Nc4cnn(CCOC)c4)nc32)c1,,,"human, both sexes, whole blood","5 µM, 60 min",,remaining compound,82.2%
Cc1ncsc1-c1ccc(C(C)NC(=O)C2CC(O)CN2C(=O)C(NC(=O)CCCCCCCCCCN2CCCC(Nc3ncc(Cl)c(Nc4ccccc4S(=O)(=O)C(C)C)n3)C2)C(C)(C)C)cc1 (stereo not drawn),22Rv1,"RNA-seq, item: ZNF334 mRNA",,concentration not given,baseline: DMSO,log2 fold change,-3.16
C=C1CC[C@H](OCCCNC(=O)CCOCCOCCOCCOCCOCCOCCOCCOCCOCCOCCOCCOCCOCCOCCOCCOCCOCCOCCOCCOCCOCCOCCOCCOCCOCCOCCOCCOCCOCCOCCOCCOCCOCCOCCOCCOCCNC(=O)CCN2C(=O)CC(SC[C@H](NC(=O)[C@H](Cc3ccccc3)NC(=O)[C@H](CC(N)=O)NC(=O)[C@H](Cc3c[nH]cn3)NC(=O)[C@@H](NC(=O)[C@H](CC(=O)O)NC(=O)[C@H](CCC(N)=O)NC(=O)[C@H](CC(C)C)NC(=O)[C@H](CCCCN)NC(=O)[C@H](CCCCN)NC(=O)[C@H](CCCNC(=N)N)NC(=O)[C@H](CC(C)C)NC(=O)[C@H](Cc3c[nH]c4ccccc34)NC(=O)[C@H](CCC(=O)O)NC(=O)[C@@H](NC(=O)[C@H](CCCNC(=N)N)NC(=O)[C@H](CCC(=O)O)NC(=O)[C@H](CCSC)NC(=O)[C@H](CO)NC(=O)[C@H](CC(N)=O)NC(=O)[C@H](CC(C)C)NC(=O)[C@H](Cc3c[nH]cn3)NC(=O)[C@H](CCCCN)NC(=O)CNC(=O)[C@H](CC(C)C)NC(=O)[C@H](CC(N)=O)NC(=O)[C@H](Cc3c[nH]cn3)NC(=O)[C@H](CCSC)NC(=O)[C@H](CC(C)C)NC(=O)[C@H](CCC(N)=O)NC(=O)[C@@H](NC(=O)[C@H](CCC(=O)O)NC(=O)[C@H](CO)NC(=O)[C@@H](NC(=O)[C@@H](N)CO)C(C)C)[C@@H](C)CC)C(C)C)C(C)C)C(=O)O)C2=O)C/C1=C/C=C1\CCC[C@]2(C)[C@@H]([C@H](C)CCCC(C)(C)O)CC[C@@H]12 (stereo partly drawn),,,"male cynomolgus monkey, plasma","subcutaneous, 0.007 mg/kg, single dose",,clearance,0.111 mL/min/kg
CCc1cnc(NC(=O)c2cc(S(=O)(=O)N3CCOCC3)ccc2N(C)C2CCCC2)s1,,,"mouse, blood","10 mg/kg, 3 doses",,Neutrophils absolute count,1480 µL⁻¹
CCCCN1C(=O)c2cccc3c(NCCCCN4CCOCC4)ccc(c23)C1=O,,,water,pH 6.0,,fluorescence quantum yield,0.34

# Excerpt of the above:
Compound,target or system,assay,test system,conditions,how to read,endpoint,result
COC1CN([C@H]2CC[C@H]([C@@]3(C)Oc4c(Cl)cc(C(=O)NCc5c(SC)cc(C)[nH]c5=O)c(C)c4O3)CC2)C1,,"RNA-seq, item: SEPTIN8 mouse homolog","mouse, HT-1376 xenograft, whole blood",dose not given,baseline: vehicle,log2 fold change,0.451
C=C(NC(=O)c1csc(-c2nc3c(cc2O)-c2nc(cs2)C(=O)NC(C(C)O)C(=O)NC(=C(C)OC)c2nc(cs2)C(=O)NC2c4nc(cs4)C(=O)NC(COC(=O)c4c5c6c(cccc6n4O)COC(=O)C(OC4CC(C)(O)C(N(C)C)C(C)O4)C2OC5)c2nc-3cs2)n1)C(N)=O (stereo not drawn),,,"female Sprague-Dawley rat, plasma","intravenous, 18 mg/kg, single dose, infusion",,Cmax,10200 ng/mL
